Values quoted from earlier work as cited in several papers.
Protocols differ between the studies behind these lines. Numbers after ± are the reported error.

Clc1cc2c(cc1Cl)Oc1cc(Cl)c(Cl)cc1O2 has a half-life of 192 to 288 h (mouse).
The half-life of COC(=O)C(N)Cc1ccc(OP2(=O)COC(Cn3ccc(N)nc3=O)CO2)cc1 (centres unmarked) is reported as 6.42 h (PBS; pH 6.5, Rp isomer).
For CC(O)CN1CCN(CC(=O)[O-])CCN(CC(=O)[O-])CCN(CC(=O)[O-])CC1.[Gd+3] (centres unmarked), the half-life was 1.57 ± 0.08 h (0.1 mmol/kg).
With COc1cc2c(c(OC)c1OC)-c1ccc(OC)c(=O)cc1[C@@H](NC(C)=O)CC2 the half-life was 4.32 h (human).
With CCOC(=O)C1=C(CN2CCOCC2)NC(c2nccs2)=NC1c1ccc(F)cc1Br (centres unmarked) the half-life was 1.78 h.
For O=S(=O)(O)C(F)(F)C(F)(F)C(F)(F)C(F)(F)C(F)(F)C(F)(F)F, the half-life was 648 h (mouse, female).
O=C(O)C(F)(F)C(F)(F)C(F)(F)C(F)(F)C(F)(F)F gave a half-life of 768 h (human).
O=C(NCCc1cccc(Cl)c1)Nc1ccc(Cl)cc1 has a half-life of 0.248 h (metabolic stability; rat liver microsomes).
COC(CNC(=O)c1ccccc1OCC(=O)O)[CH2][Hg][OH] (centres unmarked) gave a half-life of under 1 h (plasma).
O=C(O)C(F)(F)C(F)(F)C(F)(F)C(F)(F)F has a half-life of 12.5 h (human).
CC(C)(C)NC(=O)[C@@H](N)Cc1ccc(OP2(=O)CO[C@@H](Cn3ccc(N)nc3=O)CO2)cc1 (some centres unmarked) gave a half-life of 3.5 h (PBS; pH 6.5, Sp isomer).
O=C(O)C(F)(F)C(F)(F)C(F)(F)C(F)(F)C(F)(F)C(F)(F)C(F)(F)C(F)(F)C(F)(F)C(F)(F)F gave a half-life of 105000 h (human).
NCCc1c[nH]c2ccc(O)cc12 has a half-life of 264 h (solution stability).
CC(C)OC(=O)[C@@H](N)Cc1ccc(OP2(=O)CO[C@@H](Cn3ccc(N)nc3=O)CO2)cc1 (some centres unmarked) has a half-life of 12.8 h (PBS; pH 6.5, Rp isomer).

A few entries again:
CC(C)(C)NC(=O)[C@@H](N)Cc1ccc(OP2(=O)CO[C@@H](Cn3ccc(N)nc3=O)CO2)cc1 (some centres unmarked) gave a half-life of 3.5 h (PBS; pH 6.5, Sp isomer).
O=C(O)C(F)(F)C(F)(F)C(F)(F)C(F)(F)C(F)(F)C(F)(F)C(F)(F)C(F)(F)C(F)(F)C(F)(F)F gave a half-life of 105000 h (human).
